Experimental data of several laboratories.
Every numbered part comes from another study and shows a few of its results, in no order. Positions count from the first letter of the parent shown.

Sample 1
Target: CREBZF, bZIP domain (human)
Technique: DHFR protein complementation
Matrix: yeast
Setting: single substitutions, most at no-binding floor
Reference: wild-type JUN-FOS pair
Direction: higher = stronger binding
Parent: JUN, bZIP domain (human); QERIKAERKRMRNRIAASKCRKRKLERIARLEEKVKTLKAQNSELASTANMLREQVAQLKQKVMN; partner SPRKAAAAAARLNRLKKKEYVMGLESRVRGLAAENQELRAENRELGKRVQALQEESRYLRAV
Change	binding fitness [natural log]
A46Y	-1.15
A49N	-1.59
L59S	-1.44
K39I	-1.38
T37D	-1.46
T48P	-1.5
E32P	-1.52
Q41M	-1.45
R30P	-1.46

Sample 2
Target: ABI1, truncated, D143A, DHFR fusion (Arabidopsis thaliana)
Technique: DHFR PCA, deep sequencing
Matrix: yeast
Setting: methotrexate growth selection, single substitutions
Added: (+)-ABA 0 µM
Reference: wild-type fitted maximum
Direction: higher = stronger binding
Parent: PYL1, truncated, DHFR fusion (Arabidopsis thaliana); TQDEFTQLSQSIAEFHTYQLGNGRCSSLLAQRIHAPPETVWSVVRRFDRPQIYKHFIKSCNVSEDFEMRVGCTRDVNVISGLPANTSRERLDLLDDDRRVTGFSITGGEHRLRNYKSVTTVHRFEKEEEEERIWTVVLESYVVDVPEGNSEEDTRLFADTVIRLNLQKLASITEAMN; partner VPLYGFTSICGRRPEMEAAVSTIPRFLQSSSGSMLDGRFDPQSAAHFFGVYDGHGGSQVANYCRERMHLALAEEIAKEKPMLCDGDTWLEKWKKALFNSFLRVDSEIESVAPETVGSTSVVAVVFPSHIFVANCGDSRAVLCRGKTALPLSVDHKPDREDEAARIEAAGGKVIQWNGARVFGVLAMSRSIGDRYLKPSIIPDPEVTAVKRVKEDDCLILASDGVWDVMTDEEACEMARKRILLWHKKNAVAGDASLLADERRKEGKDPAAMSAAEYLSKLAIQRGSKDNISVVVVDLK
Change	relative binding score
V121G	-4.06%
P146T	20.8%
W41H	0.438%
I33R	3.37%
V40A	-4.7%
S171E	39.5%
R123T	14.7%
S59H	4.29%
C25P	5.08%
V136Y	-5.04%
I172N	-9.83%
R46D	-0.259%
S59T	13%
V142C	18.9%
I162G	4.83%

Sample 3
Molecule: PhoQ, residues 284 288 289 292 302 303 SSTLLI
Technique: Sort-seq
Measured: YFP reporter
Matrix: E. coli
Setting: PhoQ-PhoP variant library
Added: 10 µM Mg2+
Reference: high Mg2+ state
Direction: higher = stronger signaling
target	fold induction
PhoP, residues 12 14 15 18 19 ICWRQ (Escherichia coli, UniProt P23836)	12.2
PhoP, residues 12 14 15 18 19 VHTVL (Escherichia coli, UniProt P23836)	8.3
PhoP, residues 12 14 15 18 19 TQCLL (Escherichia coli, UniProt P23836)	12

Sample 4
Target: RNA binding protein fox-1 homolog 2, RRM domain, GST-SBP tag (RBFOX2, Homo sapiens, UniProt O43251-10, residues 100-194)
Technique: RNA Bind-n-Seq
Molecule type: RNA
Matrix: in vitro
Concentration: 365 nM
Setting: natural RNA segment, single round, ends assumed
Reference: no-protein control
Direction: higher = stronger binding
All sequences stand within: GGGAGUUCUACAGUCCGACGAUC … UGGAAUUCUCGGGUGCCAA
Target sequence (chain): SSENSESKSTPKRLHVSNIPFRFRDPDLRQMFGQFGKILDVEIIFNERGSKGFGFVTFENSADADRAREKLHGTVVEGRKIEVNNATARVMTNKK
Oligonucleotide	RBNS enrichment (R)
UUGUUUUUUUAGUUUGUUAUCCCCUUACUGAGCGGCCUCUACUAGGUGGCUGUGAUUAAAUGUCCCAAGCAAGGAUAGGGAAGGGGAAUGGUUGAGCCUCUGGAGAUCAU	1.35
CUGCAGAACAGCUUUUGAAGAUACUGGGGGGUAUCUUCAAGCCUCAGAGCAGCUUGUUUCAGAUAGAAAUUCUCUAUGGGUUGAAAUGCCAAAAACAGAAAACAUGAUGU	1.55
UCUUAUGGAAACAAUUGGAAAAGUAUAUGGAAAAUGAUUAUUUCAAAGAAUAUUUAUUUAAAGAGGGAAGUGUAGACUUCUUACUGUAAAAUAUGUGAUUCCAGGCUUAA	0.616
CUCGUGGGUGGUGACUUUUCCUGCAGGGCGCACGCCCUGCUGCAGCCCCCUCCCCCGCAGCCCGGAACCCACAUUGCCGGCGCAUCCUGGGUGGAGGCAGACCCCGAGCU	0.338
CUUUAACUGGACGGACGUUGUUAGGGUGAGAAAUAAAAGGACAGCCUCCAAAGGUUGAGAGCAAGAAUUGUUUUUUUCUUGGAUAUCAAAGGGAUUAUCACAGCGCAAUC	0.467
UGUUUGGUGUUGAAAUGGGGUCAUUUCAUUCCAUGUUAUGAAUGCAACCAGAAAGGGUGUCUGGGAUAUGAGCAGAUGUGGCAUCUUCCAGAAAUGAUCAUCUGGUUAUG	1.28
CAGCUUCAUCCCAGUGACGAUGCUGGACGUACAGAUGGUGAUGGCAAAGGUGUAGAACACAUUUUUUCAAAGACUAAAUCUAAAACCCAGAGUAAACAUCCGAUGCUCAG	0.507
GGUUCUGGUACUUUGAAGUCAAUGCUGUCAGGCCAGGGAAAUAAAAUAAUUGCUUACCUUAAAAGUCUACCUGGACUCAGAAUUGUGGCCUCUUUCUUUUUCUUUUCCUU	0.401

For quick reference, copied from above (sample 2):
Change	relative binding score
W41H	0.438%
I33R	3.37%
V40A	-4.7%
S171E	39.5%
R123T	14.7%
